Published values from different studies.
Numbered parts are unrelated; each lists some results of a single study.
Chain of UniProt O95382 (whole entry, looked up): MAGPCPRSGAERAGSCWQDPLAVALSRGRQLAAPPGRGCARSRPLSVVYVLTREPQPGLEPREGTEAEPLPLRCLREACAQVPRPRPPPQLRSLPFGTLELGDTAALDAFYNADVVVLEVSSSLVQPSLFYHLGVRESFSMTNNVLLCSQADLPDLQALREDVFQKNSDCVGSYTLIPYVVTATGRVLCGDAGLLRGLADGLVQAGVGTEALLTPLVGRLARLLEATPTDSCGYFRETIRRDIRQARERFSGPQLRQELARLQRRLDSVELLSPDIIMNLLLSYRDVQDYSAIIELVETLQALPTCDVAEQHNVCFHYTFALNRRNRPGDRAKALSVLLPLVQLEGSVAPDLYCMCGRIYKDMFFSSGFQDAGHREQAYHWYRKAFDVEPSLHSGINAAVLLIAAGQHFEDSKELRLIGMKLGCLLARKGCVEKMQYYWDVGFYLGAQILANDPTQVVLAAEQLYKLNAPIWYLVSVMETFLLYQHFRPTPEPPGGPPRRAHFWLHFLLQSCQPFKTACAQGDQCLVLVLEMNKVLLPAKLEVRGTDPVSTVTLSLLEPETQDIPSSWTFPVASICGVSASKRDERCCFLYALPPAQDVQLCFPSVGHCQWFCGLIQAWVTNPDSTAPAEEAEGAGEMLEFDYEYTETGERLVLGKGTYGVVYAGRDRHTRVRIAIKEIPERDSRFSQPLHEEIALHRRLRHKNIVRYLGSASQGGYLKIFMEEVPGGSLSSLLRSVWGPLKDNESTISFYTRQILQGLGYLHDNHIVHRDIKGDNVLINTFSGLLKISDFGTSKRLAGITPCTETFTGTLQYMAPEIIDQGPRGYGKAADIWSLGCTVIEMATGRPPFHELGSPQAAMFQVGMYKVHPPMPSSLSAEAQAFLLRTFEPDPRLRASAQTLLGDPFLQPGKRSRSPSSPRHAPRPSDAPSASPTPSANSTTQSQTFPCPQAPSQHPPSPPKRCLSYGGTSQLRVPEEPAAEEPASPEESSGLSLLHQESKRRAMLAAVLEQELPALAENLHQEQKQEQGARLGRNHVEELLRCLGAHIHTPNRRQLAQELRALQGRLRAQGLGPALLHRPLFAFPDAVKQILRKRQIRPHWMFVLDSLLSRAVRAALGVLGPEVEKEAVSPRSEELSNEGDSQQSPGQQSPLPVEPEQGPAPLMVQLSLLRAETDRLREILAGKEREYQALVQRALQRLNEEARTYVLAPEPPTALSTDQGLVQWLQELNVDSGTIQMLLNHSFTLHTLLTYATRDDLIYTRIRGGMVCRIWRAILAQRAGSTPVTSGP
Chain of UniProt Q99558 (whole entry, looked up): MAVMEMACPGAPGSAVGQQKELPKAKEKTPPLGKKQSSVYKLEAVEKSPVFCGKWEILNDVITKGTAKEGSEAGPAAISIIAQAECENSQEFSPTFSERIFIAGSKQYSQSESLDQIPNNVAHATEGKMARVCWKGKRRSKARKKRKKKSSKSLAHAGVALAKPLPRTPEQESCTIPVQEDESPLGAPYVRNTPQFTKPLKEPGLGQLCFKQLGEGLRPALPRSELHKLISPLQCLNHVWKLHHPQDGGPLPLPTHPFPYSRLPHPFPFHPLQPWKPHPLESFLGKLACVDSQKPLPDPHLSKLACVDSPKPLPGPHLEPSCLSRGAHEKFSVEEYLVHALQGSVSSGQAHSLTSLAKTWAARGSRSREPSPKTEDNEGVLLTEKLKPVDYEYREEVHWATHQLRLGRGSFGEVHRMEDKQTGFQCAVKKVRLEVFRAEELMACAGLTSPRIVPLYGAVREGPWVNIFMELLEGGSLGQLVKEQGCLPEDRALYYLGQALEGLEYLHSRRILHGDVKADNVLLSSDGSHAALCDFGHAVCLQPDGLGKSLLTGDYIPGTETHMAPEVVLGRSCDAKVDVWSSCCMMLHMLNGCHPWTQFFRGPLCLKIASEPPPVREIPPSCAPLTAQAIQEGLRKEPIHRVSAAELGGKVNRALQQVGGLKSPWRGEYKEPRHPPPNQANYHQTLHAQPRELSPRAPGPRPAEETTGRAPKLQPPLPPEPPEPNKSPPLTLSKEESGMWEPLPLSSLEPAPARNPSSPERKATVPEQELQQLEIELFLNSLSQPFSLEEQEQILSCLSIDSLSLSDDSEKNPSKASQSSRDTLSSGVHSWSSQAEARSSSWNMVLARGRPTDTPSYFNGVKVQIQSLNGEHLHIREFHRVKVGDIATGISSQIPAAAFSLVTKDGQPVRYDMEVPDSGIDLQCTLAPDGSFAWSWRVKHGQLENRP
Chain of UniProt P49137 (whole entry, looked up): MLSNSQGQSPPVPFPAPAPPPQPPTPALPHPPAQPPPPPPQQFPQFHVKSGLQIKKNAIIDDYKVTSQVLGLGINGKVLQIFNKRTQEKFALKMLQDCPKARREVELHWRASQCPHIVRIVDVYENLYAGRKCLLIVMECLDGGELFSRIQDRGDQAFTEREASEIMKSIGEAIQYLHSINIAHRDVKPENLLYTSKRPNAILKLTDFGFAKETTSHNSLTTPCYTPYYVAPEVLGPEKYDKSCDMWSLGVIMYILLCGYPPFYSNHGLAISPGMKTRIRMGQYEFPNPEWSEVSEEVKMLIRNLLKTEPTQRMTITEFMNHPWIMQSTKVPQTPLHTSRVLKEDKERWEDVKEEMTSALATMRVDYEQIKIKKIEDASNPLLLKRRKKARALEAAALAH
Chain of UniProt Q15831 (whole entry, looked up): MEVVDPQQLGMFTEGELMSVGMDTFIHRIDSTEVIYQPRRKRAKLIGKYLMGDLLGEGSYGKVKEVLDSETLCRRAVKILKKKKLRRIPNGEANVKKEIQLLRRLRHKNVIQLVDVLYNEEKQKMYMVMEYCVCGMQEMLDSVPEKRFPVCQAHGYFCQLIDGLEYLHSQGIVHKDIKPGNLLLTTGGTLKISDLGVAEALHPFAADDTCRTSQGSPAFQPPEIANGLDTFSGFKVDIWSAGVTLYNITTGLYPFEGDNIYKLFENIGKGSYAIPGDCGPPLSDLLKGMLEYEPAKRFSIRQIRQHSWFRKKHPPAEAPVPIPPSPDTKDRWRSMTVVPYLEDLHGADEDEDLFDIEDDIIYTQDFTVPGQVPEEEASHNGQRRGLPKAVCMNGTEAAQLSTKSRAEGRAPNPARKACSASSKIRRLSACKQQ
Chain of UniProt P25100 (whole entry, looked up): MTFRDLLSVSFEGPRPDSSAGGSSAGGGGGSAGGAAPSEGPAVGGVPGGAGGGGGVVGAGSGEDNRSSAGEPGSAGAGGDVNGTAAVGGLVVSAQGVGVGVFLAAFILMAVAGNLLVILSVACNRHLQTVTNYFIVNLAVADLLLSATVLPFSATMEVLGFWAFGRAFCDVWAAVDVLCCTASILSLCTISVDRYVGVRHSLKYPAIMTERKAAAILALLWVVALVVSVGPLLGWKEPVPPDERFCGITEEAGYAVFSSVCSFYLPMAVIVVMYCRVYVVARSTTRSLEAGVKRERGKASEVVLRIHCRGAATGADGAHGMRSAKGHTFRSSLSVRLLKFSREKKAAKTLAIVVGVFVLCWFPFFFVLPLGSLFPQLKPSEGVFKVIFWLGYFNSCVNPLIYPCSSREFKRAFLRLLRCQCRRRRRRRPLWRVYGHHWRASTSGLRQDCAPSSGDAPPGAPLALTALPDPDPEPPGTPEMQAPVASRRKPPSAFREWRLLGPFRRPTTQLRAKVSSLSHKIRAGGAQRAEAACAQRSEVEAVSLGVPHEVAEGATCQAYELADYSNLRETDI
Chain of UniProt P36507 (whole entry, looked up): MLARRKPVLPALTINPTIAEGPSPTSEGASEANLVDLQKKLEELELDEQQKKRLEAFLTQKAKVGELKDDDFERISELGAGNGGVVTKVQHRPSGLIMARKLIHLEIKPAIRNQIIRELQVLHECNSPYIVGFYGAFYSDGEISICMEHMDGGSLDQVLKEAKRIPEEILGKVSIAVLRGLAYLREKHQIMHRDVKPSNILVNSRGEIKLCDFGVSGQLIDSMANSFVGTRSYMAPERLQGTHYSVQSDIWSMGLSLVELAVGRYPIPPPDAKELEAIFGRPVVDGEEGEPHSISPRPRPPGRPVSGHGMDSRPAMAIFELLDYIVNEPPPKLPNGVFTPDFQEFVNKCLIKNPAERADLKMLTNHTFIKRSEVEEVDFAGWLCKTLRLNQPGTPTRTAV

Study 1
SMILES: NC(N)=NC(=O)c1nc(Cl)c(N2CCCCCC2)nc1N
Read-out: β-arrestin recruitment
Action: agonist
Technique: PRESTO-Tango
Concentration: 10 µM
Relative to: untreated
Measurement: fold over basal
CX3CR1 (Homo sapiens, UniProt P49238): 0.57
AVPR1B (Homo sapiens, UniProt P47901): 0.5
NMBR (Homo sapiens, UniProt P28336): 0.83
F2RL1 (Homo sapiens, UniProt P55085): 0.81
AVPR1A (Homo sapiens, UniProt P37288): 0.79
S1PR4 (Homo sapiens, UniProt O95977): 1.46
AVPR2 (Homo sapiens, UniProt P30518): 0.63
ADRA1D (Homo sapiens, UniProt P25100): 0.92
DRD3 (Homo sapiens, UniProt P35462): 3.27
Leukotriene B4 receptor 2, isoform b (LTB4R2, Homo sapiens, UniProt Q9NPC1): 0.75

Study 2
Compound: O=C1NC(=O)/C(=C/c2ccc3nccnc3c2)S1
Read-out: enzyme activity
Action: inhibitor
Concentration: 0.5 µM
Relative to: control
Measurement: remaining activity
MAP3K5 (Homo sapiens, UniProt Q99683): 102%
NEK6 (Homo sapiens, UniProt Q9HC98): 109%
ABL2 (Homo sapiens, UniProt P42684): 96.8%
ULK2 (Homo sapiens, UniProt Q8IYT8): 104%
ACVR1B (Homo sapiens, UniProt P36896): 109%
ULK3 (Homo sapiens, UniProt Q6PHR2): 102%
MAP3K14 (Homo sapiens, UniProt Q99558): 101%
TBK1 (Homo sapiens, UniProt Q9UHD2): 90.6%
TAOK2 (Homo sapiens, UniProt Q9UL54): 89.9%
ARAF (Homo sapiens, UniProt P10398): 103%
MAP2K2 (Homo sapiens, UniProt P36507): 93.5%
FGFR3 (Homo sapiens, UniProt P22607): 97.3%
FRK (Homo sapiens, UniProt P42685): 91.7%
MAPKAPK2 (Homo sapiens, UniProt P49137): 97.7%
CSNK1G2 (Homo sapiens, UniProt P78368): 83.4%

Study 3
Medium: 1,9-decadiene/PBS
pH: 7.4
Measurement: logD
CC(C)C[C@@H]1NC(=O)[C@H](CC(C)C)NC(=O)[C@@H](CC(C)C)NC(=O)[C@H](CC(C)C)NC(=O)[C@@H](Cc2cscn2)NC(=O)[C@@H](CC(C)C)NC(=O)[C@H](C)NC1=O: 0.372
CC(C)C[C@@H]1NC(=O)[C@H](Cc2cscn2)NC(=O)[C@@H](CC(C)C)NC(=O)[C@@H](CCC(=O)N2CCCC2)NC(=O)[C@H](CC(C)C)NC(=O)[C@@H](CC(C)C)NC(=O)[C@H](CC(C)C)NC1=O: 0.317
CC(C)C[C@@H]1NC(=O)[C@@H](C)NC(=O)[C@@H](CC(C)C)NC(=O)[C@@H](CC(C)C)NC(=O)[C@H](C)NC(=O)[C@H](CC(C)C)NC(=O)[C@@H](CC(C)C)NC1=O: 0.169
CC(C)C[C@@H]1NC(=O)[C@H](C)NC(=O)[C@@H](Cc2cscn2)NC(=O)[C@@H](CC(C)C)NC(=O)[C@H](C)NC(=O)[C@H](CC(C)C)NC(=O)[C@H](CC(C)C)NC1=O: -1.09
CC(C)C[C@@H]1NC(=O)[C@H](CC(C)C)NC(=O)[C@H](CC(C)C)NC(=O)[C@H](C(C)C)NC(=O)[C@@H](Cc2cscn2)NC(=O)[C@H](Cc2cscn2)NC(=O)[C@H](CCC(=O)N2CCCC2)NC1=O: -1.68
CC(C)C[C@@H]1NC(=O)[C@H](C)NC(=O)[C@H](Cc2cscn2)NC(=O)[C@@H](CC(C)C)NC(=O)[C@H](C(C)C)NC(=O)[C@H](CC(C)C)NC(=O)[C@@H](CC(C)C)NC1=O: -0.573
CC(C)C[C@@H]1NC(=O)[C@H](CCC(=O)N2CCCC2)NC(=O)[C@@H](C(C)C)NC(=O)[C@H](C)NC(=O)[C@H](CC(C)C)NC(=O)[C@@H](CC(C)C)NC(=O)[C@H](CC(C)C)NC1=O: -0.865
CC(C)C[C@@H]1NC(=O)[C@H](C(C)C)NC(=O)[C@H](CCC(=O)N2CCCC2)NC(=O)[C@H](CCC(=O)N2CCCC2)NC(=O)[C@@H](Cc2cscn2)NC(=O)[C@H](CC(C)C)NC(=O)[C@@H](CC(C)C)NC1=O: -2.58
CC(C)C[C@@H]1NC(=O)[C@H](CC(C)C)NC(=O)[C@H](CC(C)C)NC(=O)[C@H](CC(C)C)NC(=O)[C@@H](Cc2cscn2)NC(=O)[C@H](Cc2cscn2)NC(=O)[C@H](CCC(=O)N2CCCC2)NC1=O: -1.4

Study 4
Structure (SMILES): CNC(=O)Nc1ccc2c(c1)[C@@]1(CC2)OC(=O)N(CC(=O)N(Cc2ccc(F)cc2)[C@@H](C)C(F)(F)F)C1=O
Read-out: cell-free assay
Technique: competition with immobilised ligand
Concentration: 1 µM
Measurement: remaining binding
MAP3K4 (Homo sapiens, UniProt Q9Y6R4): 87%
NEK5 (Homo sapiens, UniProt Q6P3R8): 95%
CSNK2A2 (Homo sapiens, UniProt P19784): 90%
STK11 (Homo sapiens, UniProt Q15831): 100%
STK16 (Homo sapiens, UniProt O75716): 99%
MAP2K1 (Homo sapiens, UniProt Q02750): 98%
MAP3K15 (Homo sapiens, UniProt Q6ZN16): 90%
EGFR (Homo sapiens, UniProt P00533, T790M): 73%
TAOK3 (Homo sapiens, UniProt Q9H2K8): 82%
MAP4K2 (Homo sapiens, UniProt Q12851): 92%
Ribosomal protein S6 kinase alpha-2, N-terminal kinase domain (RPS6KA2, Homo sapiens, UniProt Q15349): 87%
EPHA8 (Homo sapiens, UniProt P29322): 96%
ERN1 (Homo sapiens, UniProt O75460): 100%
TTK (Homo sapiens, UniProt P33981): 100%
MAP3K6 (Homo sapiens, UniProt O95382): 82%
EGFR (Homo sapiens, UniProt P00533, L858R): 100%
Receptor-type tyrosine-protein kinase FLT3, autoinhibited (FLT3, Homo sapiens, UniProt P36888): 92%
FGFR1 (Homo sapiens, UniProt P11362): 84%
BMPR2 (Homo sapiens, UniProt Q13873): 100%
Aurora kinase C (AURKC, Homo sapiens, UniProt Q9UQB9): 100%
HASPIN (Homo sapiens, UniProt Q8TF76): 83%
Non-receptor tyrosine-protein kinase TYK2, JH1 (TYK2, Homo sapiens, UniProt P29597): 92%

Some of these lines once more (study 1):
NMBR (Homo sapiens, UniProt P28336): 0.83
F2RL1 (Homo sapiens, UniProt P55085): 0.81
AVPR1A (Homo sapiens, UniProt P37288): 0.79
S1PR4 (Homo sapiens, UniProt O95977): 1.46
AVPR2 (Homo sapiens, UniProt P30518): 0.63
ADRA1D (Homo sapiens, UniProt P25100): 0.92
DRD3 (Homo sapiens, UniProt P35462): 3.27
Leukotriene B4 receptor 2, isoform b (LTB4R2, Homo sapiens, UniProt Q9NPC1): 0.75
